Measurements pooled from the literature.
Protocols differ between the studies behind these lines. “And” joins repeats or separate records; there may be more than shown. ± marks the error that the study gave. ≈ marks a conversion by molar mass, not a printed value.

`CN(C)[C@@H]1C(O)=C(C(N)=O)C(=O)[C@@]2(O)C(O)=C3C(=O)c4c(O)cccc4[C@@](C)(O)[C@H]3C[C@@H]12` has a DNA width of 0.69 µm and 0.68 µm and 0.65 µm (Bacillus subtilis; bacterial cytological profiling; ATCC 6633).
With `COCC(=O)N1CCC[C@H](C(=O)NCc2nc(-c3ccc(C#N)cc3)cs2)C1` the EC50 was 0.031 ± 0.0035 µM (Plasmodium falciparum; SYBR Green; 3D7; 72 h).
For `COc1cccc2c1C(=O)c1c(O)c3c(c(O)c1C2=O)C[C@@](O)(C(=O)CO)C[C@@H]3O[C@H]1C[C@H](N)[C@H](O)[C@H](C)O1`, the DNA length was 2.4 µm and 2.41 µm and 2.67 µm (Bacillus subtilis; bacterial cytological profiling; ATCC 6633).
For `O=c1c(-c2nc3ccccc3s2)cc2c(n1NS(=O)(=O)c1ccccc1)CCCC2`, the reduction was 10% (Human mastadenovirus B; viral replication, plaque reduction; HEp-2 cells, type 7; non-toxic concentration).
`N#C[C@@]1(c2ccc3c(N)ncnn23)O[C@H](COC(=O)c2ccccc2)[C@@H](O)[C@H]1O` gave an EC50 of 0.48 ± 0.052 µM (human respiratory syncytial virus; viral replication, viral protein ELISA; HEp-2, A2; 5 days).
`Cc1nc2[nH]c(=O)n(O)c(=O)c2s1` gave a growth inhibition of 0% (Amaranthus retroflexus; 750 g/ha, 21 days, post-emergence, glasshouse pot).
Under “MIC in combination”, `N=C(N)c1ccc(OCCCCCOc2ccc(C(=N)N)cc2)cc1` is recorded as 50 µg/mL (Escherichia coli; ATCC 25922; concentration not given, with: rifampicin).
`Nc1nc(-c2ccccc2)nc2[nH]nc(Nc3ccc(C(F)(F)F)cc3)c12` has a clinical score of 1.5 (coxsackievirus B3; 31-1-93, NMRI mice, CVB3 chronic myocarditis; oral, 100 mg/kg twice daily, day 11, dosed days 3 to 10, score scale 0 to 7; direction not given).
`O=C1O[C@H]2[C@@H]3OC(=O)c4cc(O)c(O)c(O)c4-c4c(O)c(O)c5oc(=O)c6c(c(O)c(O)c7oc(=O)c4c5c76)-c4c(cc(O)c(O)c4O)C(=O)OC[C@H]3OC(O)[C@@H]2OC(=O)c2cc(O)c(O)c(O)c2-c2c1cc(O)c(O)c2O` (mixture of isomers) has an MBC/MIC ratio of 2 (Streptococcus sobrinus; broth microdilution).
With `[N-]=[N+]=N[C@]1(CO)O[C@@H](n2ccc(N)nc2=O)[C@@H](F)[C@@H]1O` the EC50 was over 50 µM (human respiratory syncytial virus; viral replication; Huh7.5, A2 GFP reporter).
`O=c1oc2c(O)c(O)cc3c(=O)oc4c(O)c(O)cc1c4c23` has an MBC/MIC ratio of 2 (Streptococcus sobrinus; broth microdilution).
For `CCn1c(=O)c(-c2cc[nH]n2)cc2c(C)nc(N)nc21`, viral load read “decreased” (enterovirus A71; RT-qPCR, measured: EV71 RNA; ICR mouse, EV71-infected, brain, heart, liver, spleen, hindlimb; 0.25 mg/kg, day 2 post-infection).
`CCc1nn(C)c2nc(-c3ccc(C(=O)O)cc3)nc(NCc3ccc(F)cc3)c12` has a parasite number of 74.8% and 92.2% and 97% and 87.6% (Cryptosporidium parvum; HCT-8; 3 x EC90, 3 h; relative to: DMSO control).
Under “relative wound size”, `C=CC[C@@H]1c2ccc(OC)c(OC)c2CN2CCc3cc4c(cc3[C@H]12)OCO4` is recorded as 0.28 and 0.17 and 0.31 and 0.11 and 0.29 (Staphylococcus aureus; P2rx7+/+ mice, skin wound infection; dose not given, day 7; relative to: day 0).
`O=C(NCCc1c[nH]c2ccccc12)C(=O)c1c[nH]c2ccc(F)cc12` gave a killing of 80 to 95% (Pseudomonas putida, Escherichia coli; bactericidal activity; 3 x MIC, 2 h).
With `CC(C)n1ncc2c(C(=O)NCC3(C)CNC3)cc(C3CC3)nc21` the plaque area was 85.6% and 75.5% (enterovirus A71; Tainan/4643/1998; 0.1 µM).
`Cc1cc(OC(C)C)ccc1C(=O)C(C)(C)NC(=O)c1sccc1C` gave an inhibition of 100% (Botrytis cinerea; mycelial growth; B05.10; 1 µg/mL).
`C#CCOC(=O)ON=C1C=CC(=C(C#N)c2ccccc2)C=C1` gave an MFC of 16 µg/mL (≈ 52.6 µM) (Pichia norvegensis; broth dilution; ATCC 96139; 48 h, 37 °C).
With `O=C(O)c1cn(C2CC2)c2cc(N3CCNCC3)c(F)cc2c1=O` the DNA perimeter was 6.76 µm and 6.73 µm and 6.93 µm (Bacillus subtilis; bacterial cytological profiling; ATCC 6633).
For `O=C(O[C@@H]1O[C@@H]2COC(=O)c3cc(O)c(O)c(O)c3-c3c(cc(O)c(O)c3O)C(=O)O[C@H]([C@H]1O)[C@@H]2O)c1cc(O)c(O)c(O)c1`, “initial rate of glycolytic pH drop” read 0.033 pH units/min (Streptococcus sobrinus; MIC, first 15 min, with: glucose 1%).
`CO[C@H]1/C=C/O[C@@]2(C)Oc3c(C)c(O)c4c(O)c(c(/C=N/N5CCN(C)CC5)c(O)c4c3C2=O)NC(=O)/C(C)=C\C=C\[C@H](C)[C@H](O)[C@@H](C)[C@@H](O)[C@@H](C)[C@H](OC(C)=O)[C@@H]1C` has a cell width of 0.86 µm and 0.88 µm (Bacillus subtilis; bacterial cytological profiling; ATCC 6633; concentration not given).
With `CC1(C)S[C@@H]2[C@H](NC(=O)[C@H](N)c3ccccc3)C(=O)N2[C@H]1C(=O)O` the MIC was over 16 µg/mL (Pseudomonas aeruginosa; clinical isolate RKI-No_613/16).
`Cc1cc(/C=C/C#N)cc(C)c1Nc1ccnc(Nc2ccc(C#N)cc2)n1` has an EC50 of 0.0006 ± 4e-05 µM (HIV-1 NL4-3; viral replication, luciferase reporter; TZM-bl; 48 h).
`CO[C@H]1/C=C/O[C@@]2(C)Oc3c(C)c(O)c4c(c3C2=O)C2=NC3(CCN(CC(C)C)CC3)NC2=C(NC(=O)/C(C)=C\C=C\[C@H](C)[C@H](O)[C@@H](C)[C@@H](O)[C@@H](C)[C@H](OC(C)=O)[C@@H]1C)C4=O` has an IC50 of 1.8 µM (Mycobacteroides abscessus; bacterial growth; subsp. abscessus clinical isolate; slow grower).
The MIC50 of `CN[C@H](CC(C)C)C(=O)N[C@H]1C(=O)N[C@@H](CC(N)=O)C(=O)N[C@H]2C(=O)N[C@H]3C(=O)N[C@H](C(=O)N[C@H](C(=O)O)c4cc(O)cc(O)c4-c4cc3ccc4O)[C@H](O)c3ccc(c(Cl)c3)Oc3cc2cc(c3O[C@@H]2O[C@H](CO)[C@@H](O)[C@H](O)[C@H]2O[C@H]2C[C@](C)(N)[C@H](O)[C@H](C)O2)Oc2ccc(cc2Cl)[C@H]1O` is reported as 2 µg/mL (≈ 1.38 µM) (Staphylococcus epidermidis; methicillin-resistant, 10 isolates; serum 50%).
`Oc1cc(O)c2c(c1)O[C@H](c1cc(O)c(O)c(O)c1)[C@@H](O)C2` has an MBC/MIC ratio of 4 (Streptococcus sobrinus; broth microdilution).
For `CCC(CC)COC(=O)[C@H](C)N[P@](=O)(OC[C@H]1O[C@@](C#N)(c2ccc3c(N)ncnn23)[C@H](O)[C@@H]1O)Oc1ccccc1`, the EC50 was 0.04 ± 0.003 µM (human respiratory syncytial virus; viral replication, viral protein ELISA; HEp-2, A2; 5 days).
`CC1=N/C(=C\c2cc(F)c(O)c(F)c2)C(=O)N1C` has a saturating concentration of 30 µM (Bacillus subtilis; cytoplasmic accumulation, flow cytometry).
For `COC(=O)[C@H](Cc1c[nH]c2ccccc12)NCc1cc2ccccc2nc1OC`, the growth was 97.9% (Pseudomonas aeruginosa; 8 µg/mL, with: pentamidine 50 µM; relative to: control).
The inhibition of `COC[C@H]1O[C@@H]2O[C@H]3[C@H](OC)[C@@H](OC)[C@@H](O[C@H]4[C@H](OC)[C@@H](OC)[C@@H](O[C@H]5[C@H](OC)[C@@H](OC)[C@@H](O[C@H]6[C@H](OC)[C@@H](OC)[C@@H](O[C@H]7[C@H](OC)[C@@H](OC)[C@@H](O[C@H]8[C@H](OC)[C@@H](OC)[C@@H](O[C@H]1[C@H](OC)[C@H]2OC)O[C@@H]8COC)O[C@@H]7COC)O[C@@H]6COC)O[C@@H]5COC)O[C@@H]4COC)O[C@@H]3COC` is reported as -4 ± 3% (Escherichia coli; LuxR reporter, antagonist; DH5α sensor strain; 20 µM, with: OHHL 200 nM).
`O=c1[nH]c2ncsc2c(=O)n1O` gave a growth inhibition of 93.4% (Amaranthus retroflexus; 1500 g/ha, 21 days, pre-emergence, glasshouse pot).
`N#C[C@@]1(c2ccc3c(N)ncnn23)O[C@H](COC(=O)C2CCCCC2)[C@@H](O)[C@H]1O` has an EC50 of 0.52 ± 0.088 µM (human respiratory syncytial virus; viral replication, viral protein ELISA; HEp-2, A2; 5 days).
With `CC1(C)S[C@@H]2[C@H](NC(=O)[C@H](N)c3ccccc3)C(=O)N2[C@H]1C(=O)O` the DNA length was 2.34 µm and 2.27 µm and 2.3 µm (Bacillus subtilis; bacterial cytological profiling; ATCC 6633).
With `N=C(N)c1ccc(OCc2ccc(Br)cc2COc2ccc(C(=N)N)cc2)cc1` the FICI was at most 0.047 (Escherichia coli; checkerboard; mcr-3 polymyxin-resistant; unit not given, with: rifampicin; lower = stronger synergy).
`COC(=O)[C@H](Cc1c[nH]c2ccccc12)NCc1cc2ccccc2nc1SC` gave a growth of 80.4% (Pseudomonas aeruginosa; 32 µg/mL, with: pentamidine 50 µM; relative to: control).
With `[H]/N=C(\N/C(=N/[H])NCCCCCCNC(=N)NC(=N)Nc1ccc(Cl)cc1)Nc1ccc(Cl)cc1` the final pH was over 5.5 (Streptococcus sobrinus; MIC, 120 min, initial pH 7.4).

For quick reference, copied from above:
For `O=C(O[C@@H]1O[C@@H]2COC(=O)c3cc(O)c(O)c(O)c3-c3c(cc(O)c(O)c3O)C(=O)O[C@H]([C@H]1O)[C@@H]2O)c1cc(O)c(O)c(O)c1`, “initial rate of glycolytic pH drop” read 0.033 pH units/min (Streptococcus sobrinus; MIC, first 15 min, with: glucose 1%).
`CO[C@H]1/C=C/O[C@@]2(C)Oc3c(C)c(O)c4c(O)c(c(/C=N/N5CCN(C)CC5)c(O)c4c3C2=O)NC(=O)/C(C)=C\C=C\[C@H](C)[C@H](O)[C@@H](C)[C@@H](O)[C@@H](C)[C@H](OC(C)=O)[C@@H]1C` has a cell width of 0.86 µm and 0.88 µm (Bacillus subtilis; bacterial cytological profiling; ATCC 6633; concentration not given).
